# Published values gathered from unrelated publications.
# Parts stem from different laboratories: compare values within a part only. Changes are numbered by the printed parent chain.

# Sample 1
# Target: Fragile X messenger ribonucleoprotein 1, C-terminal low-complexity region (Fmr1, Mus musculus, UniProt P35922)
# Method: RNA Bind-n-Seq
# Form: RNA
# Sample: in vitro
# Tested at: 200 nM
# Setting: whole 134-nt RNA, ends assumed
# Added: 150 mM KCl
# Baseline: input library
# Reading: higher = stronger binding
# Shared flanks, not repeated: GGGAGUUCUACAGUCCGACGAUC … UGGAAUUCUCGGGUGUCAAGG
Sequence,log2 enrichment
ACCAUGCAGGUGGGCAGCUUUGGGAAGUGGGGCAAGGGGGGGAUAGGGAGGGGGGUAACACUUUGGGAACAGGUGGUCCCAGGUCGUUUC,0.807
CAAGUCCUGUGCUACACAUCGUAUGUACCGAAUCGGGCCCGGGCCCGGGGCCCGGAAAGUAUUAUGUUACGCCGUUCGGAUCUGCACUUC,-0.345
UGUGCUACACAUCGUAUGUACCGAAUCGGUUUUUUUGGGGUUUUUUUGGGGUUUUUUUGGGGAAAGUAUUAUGUUACGCCGUUCGGAUCU,-0.0456
CCUGUGCUACACAUCGUAUGUACCGAAUCGGGAAAAAAAGGGUUUUUUUGGGAAAAAGGGAAAGUAUUAUGUUACGCCGUUCGGAUCUGC,-0.956
ACCAUGCAGGUGGGCAUCUUUGGGAAGUGGGGCAAGGGGGGGAUAGGGAGGGGGGUAACACUUUGGGAACAUGUGGUCCCAGGUCGUUUC,0.848
UCCUGUGCUACACAUCGUAUGUACCGAAUCAAACCCCCCCAAACCCAAAUUUUUUUAAAAAAGUAUUAUGUUACGCCGUUCGGAUCUGCA,0.115

# Sample 2
# Target: Interferon regulatory factor 5, full length, phosphomimetic (IRF5, Homo sapiens, UniProt Q13568-2, residues 1-514, K96S/S451D/S453D/S456D/S462D)
# Method: protein-binding microarray
# Form: double-stranded DNA, one strand shown
# Sample: in vitro
# Tested at: 250 nM
# Setting: 60-bp whole probe
# Added: salmon DNA 0.4 mg/ml
# Baseline: random background probes
# Reading: higher = stronger binding
# Shared flanks, not repeated: GCCTAGCAC … GTGCTAGGTCTTGATTCGCTTGACGCTGCTG
Sequence,log fluorescence [z-score]
TCAGTTTCTCCTTTCCAACT,4.08
TTTACTTTCTACGTCTGATT,4.34
GACGATTTCAGTTCCGGGAC,1.55
AAGTTTACCCATCTCCAGTA,0.144
GACGAACTAAGACTGGAGAC,-0.38
TTCTCTTTCACTGCTGCCCT,4.19
TCAATTTTTGCTTACGAACT,1.2
GTTAGTGGGATGGCTGTGGT,-0.514
GGAGTGGGAAGCTTCGCTCC,-0.539

# Sample 3
# Target: CCND3, cyclin fold, Cln2 fusion (human)
# Method: yeast growth competition, sequencing
# Sample: yeast
# Setting: weak parent motif
# Baseline: not given
# Reading: higher = stronger binding
# Starting sequence: SAMHD1 docking peptide (human); ASKSRVQLFKDDP
Substitution,normalised enrichment score
ASKSNVQLFKDDP [R5N],-0.16
ASKSRVQLFTDDP [K10T],0.0294
ASKSRVQLGKDDP [F9G],0.0131
ASKSRFQLFKDDP [V6F],0.27
ASKSRVGLFKDDP [Q7G],0.206
ASKIRVQLFKDDP [S4I],0.159

# Mixed results
Substance,target,test,test system,conditions,how to read,quantity,value
"PhoQ, residues 284 288 289 292 302 303 TLASMF","PhoP, residues 12 14 15 18 19 LQHIR (Escherichia coli, UniProt P23836)","Sort-seq, item: YFP reporter",E. coli,"PhoQ-PhoP variant library, added: 10 µM Mg2+","baseline: high Mg2+ state, higher = stronger signaling",fold induction,4.3

# Excerpt of the above (sample 3):
Substitution,normalised enrichment score
ASKSRVQLGKDDP [F9G],0.0131
ASKSRFQLFKDDP [V6F],0.27
ASKSRVGLFKDDP [Q7G],0.206
ASKIRVQLFKDDP [S4I],0.159
